Measured values of several laboratories.
Lines come from different studies, so protocols differ.

Cn1cncc1[C@@](N)(c1ccc(Cl)cc1)c1ccc2c(c1)c(-c1cccc(Cl)c1)cc(=O)n2C
CL/F (human patients; oral, 200 mg/m2, first dose, cycle 1, median): 643 mL/min/m2

CC[C@@H]1CN(C(=O)NCC(F)(F)F)C[C@@H]1c1cnc2cnc3[nH]ccc3n12
CL/F ratio (population PK modelling; human; oral, final model, outliers re-estimated; reference: RA patients over healthy subjects): 0.773

C[C@@H](Oc1ccc(S(C)(=O)=O)cc1C(=O)N1C[C@@H]2C[C@]2(c2cc(C(F)(F)F)on2)C1)C(F)(F)F
CL/F at steady state (elderly humans, plasma; 25 mg once daily, multiple dose, geometric mean): 74.1 mL/min

CC1(COc2ccc3c(c2)ncn3-c2ccc3cccc(N4CCC(N)CC4)c3n2)COC1
CL/F (human patients, recurrent/progressive HGG or DIPG, serum; oral, 130 mg/m^2, day 1, median): 48.7 L/h/m²

CCn1cc(C(=O)N2CCOCC2)c(=O)c2cc(NC3Cc4ccccc4C3)cnc21
CL/F (human, fed; oral suspension, 1200 mg/day twice daily, day 8, arithmetic mean): 58.8 L/h

Cn1ncnc1[C@H]1c2n[nH]c(=O)c3cc(F)cc(c23)N[C@@H]1c1ccc(F)cc1
CL/F at steady state (human patients, plasma; oral, 600 µg/m2 twice daily day 1, day 5, dose level DL4, median, together with: temozolomide 30 mg/m2 daily days 2-6): 3.2 L/h/m2

Cn1cc(-c2cn3nccc3c(-c3cnn([C@]4(CC#N)C[C@@H](C#N)C4)c3)n2)cn1
CL/F (healthy human, plasma; 400 mg once daily, day 10, multiple dose, fed, geometric mean): 73.8 L/h

Cc1ncnc2c1ccn2[C@@H]1C[C@H](Oc2cc(C(F)F)c(F)c3c2CNCC3)[C@@H](O)[C@H]1O
CL/F (human; oral, 6 mg twice daily): 21.4 L/h

CC(C)Nc1nc2cc(Cl)c(Cl)cc2n1[C@H]1O[C@@H](CO)[C@H](O)[C@@H]1O
CL/F reduction (population PK model; human; oral, dose not given, together with: strong CYP3A4 inhibitors): 29%

N#Cc1ccc2c(c1)[C@H]1CCCN(C(=O)c3ccc4[nH]cnc4c3)[C@H]1C2
CL/F steady state (human, plasma; oral, 80 mg once daily, day 28 steady state): 54.1 mL/min

A few entries again:
Cn1cc(-c2cn3nccc3c(-c3cnn([C@]4(CC#N)C[C@@H](C#N)C4)c3)n2)cn1
CL/F (healthy human, plasma; 400 mg once daily, day 10, multiple dose, fed, geometric mean): 73.8 L/h
